Results of several laboratories.
Compare with care: the assays were run in different laboratories. Numbers after ± are the reported error.
UniProt P53680, sequence (whole entry, looked up): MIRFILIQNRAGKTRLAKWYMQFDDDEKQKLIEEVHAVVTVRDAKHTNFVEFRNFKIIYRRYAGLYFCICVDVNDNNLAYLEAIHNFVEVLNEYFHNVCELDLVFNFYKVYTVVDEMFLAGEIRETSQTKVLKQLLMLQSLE

`COc1cc2c(Oc3ccc4[nH]c(C)cc4c3F)ccnc2cc1OCC1(N)CC1`: “grade 3 Hematochezia” 0% (paediatric recurrent refractory sarcoma; 8 mg/kg).
The GI50 of `CN[C@@H]1C[C@H]2O[C@@](C)([C@@H]1OC)n1c3ccccc3c3c4c(c5c6ccccc6n2c5c31)C(=O)NC4` is reported as 0.009 µM (U2OS overexpressing DDR1 G707A; cell growth).
Under “log2 fold change”, `CC[C@H](C)[C@@H]1NC(=O)[C@@H]2CCCN2C(=O)[C@H](CC(C)C)NC(=O)[C@H](CC(C)C)NC(=O)CNC(=O)[C@@H](NC(=O)[C@@H](NC(=O)[C@H](CC(=O)O)NC(=O)CNC(=O)[C@@H](NC(=O)[C@H](C)NC(=O)CNC(=O)[C@H](CCCCN)NC(=O)[C@H](CC(C)C)NC(=O)[C@H](CC(C)C)NC(=O)[C@H](CCCCN)NC(=O)CNC(=O)[C@@H](NC(=O)[C@@H](N)CC(C)C)C(C)C)C(C)C)C(C)C)CSSC[C@@H](C(=O)O)NC1=O` is recorded as 1.26 (RNA-seq, measured: Zfp54 mRNA; mouse traumatic brain injury, frontal cortex and hippocampus; dose not given; relative to: TBI plus compound vs TBI).
`C[C@]12CC[C@H](n3ccnc3)CC1=CC[C@@H]1[C@@H]2CC[C@]2(C)C(n3cnc4ccccc43)=CC[C@@H]12` has a GI50 of 0.31 ± 0.16 µM (CWR22Rv1; cell growth, MTT).
`CC(C)N1CCC(NC2CCN(c3cccc(-c4cc5cc(F)ccc5[nH]4)c3)CC2)CC1` gave a GI50 of 1.69 µM (NCI/ADR-RES).
`C[C@]12CC[C@H](O)CC1=CC[C@@H]1[C@@H]2CC[C@]2(C)C(n3cnc4ccccc43)=CC[C@@H]12` gave a GI50 of 0.56 ± 0.17 µM (CWR22Rv1; cell growth, MTT).
`COc1c(CCC[P+](c2ccccc2)(c2ccccc2)c2ccccc2)cc2c(c1OC)OCO2.[I-]` gave a GI50 of -6.22 log M (Malme-3M; SRB).
With `Nc1ncnc2c1ncn2[C@@H]1O[C@@H]2COP(=O)(O)O[C@H]3[C@@H](O)[C@H](n4cnc5c(=O)[nH]cnc54)O[C@@H]3COP(=O)(O)O[C@H]2[C@H]1O` the fold enrichment was 6.35 (West Nile virus; RNA sequencing Reactome analysis, measured: Collagen formation (R-HSA-1474290); HFF-1; concentration not given, downregulated pathways, together with: West Nile virus infection; relative to: WNV-infected without compound).
`CC[C@H](C)[C@H](NC(=O)[C@H](Cc1ccccc1)NC(=O)[C@H](CCC(=O)O)NC(=O)[C@H](CCCNC(=N)N)NC(=O)[C@H](C)NC(=O)[C@H](C)NC(=O)[C@H](CCC(N)=O)NC(=O)[C@H](CCC(=O)O)NC(=O)[C@H](CCC(=O)O)NC(=O)[C@H](CC(C)C)NC(=O)[C@H](Cc1ccc(O)cc1)NC(=O)[C@H](CO)NC(=O)[C@H](CO)NC(=O)[C@@H](NC(=O)[C@H](CC(=O)O)NC(=O)[C@H](CO)NC(=O)[C@@H](NC(=O)[C@H](Cc1ccccc1)NC(=O)[C@@H](NC(=O)CNC(=O)[C@H](CCC(=O)O)NC(=O)[C@H](C)NC(=O)CCc1c[nH]cn1)[C@@H](C)O)[C@@H](C)O)C(C)C)C(=O)N[C@@H](C)C(=O)N[C@@H](Cc1c[nH]c2ccccc12)C(=O)N[C@@H](CC(C)C)C(=O)N[C@H](C(=O)N[C@@H](CCCNC(=N)N)C(=O)NCC(=O)N[C@@H](CCCNC(=N)N)C(=O)N[C@@H](CCCCNC(=O)COCCOCCNC(=O)COCCOCCNC(=O)CC[C@H](NC(=O)CCCCCCCCCCCCCCCCC(=O)O)C(=O)O)C(=O)NCC(=O)NCC(=O)N[C@@H](CO)C(=O)N[C@@H](CCCCNc1c(NCCCCCN(O)C(=O)CCC(=O)NCCCCCN(O)C(=O)CCC(=O)NCCCCCN(O)C(C)=O)c(=O)c1=O)C(=O)O)C(C)C` [zirconium-89 labelled] gave a tissue uptake of 2.13 %ID/g (ex vivo gamma counting; rat, skin at injection site; subcutaneous, 3 nmol/kg, 24 h).
The GI50 of `Nc1ncc(-c2nc(N3CCOCC3)nc(N3CCOCC3)n2)c(C(F)F)n1` is reported as 0.31 µM (COLO 205; 72 h).
The GI50 of `Cc1c(Cl)c(=O)oc2cc(OCCCC[Se]C#N)ccc12` is reported as 11 ± 2 µM (WiDr, multidrug-resistant; sulforhodamine B).
For `CN1CCN(C2(CNC3CCN(c4cccc(-c5cc6cc(F)ccc6[nH]5)c4)CC3)CCC2)CC1`, the GI50 was 1.87 µM (OVCAR-4).
`C[C@H]1CN(c2n[nH]c3nc(N[C@H]4CC[C@H](NS(=O)(=O)CCC(F)(F)F)CC4)ncc23)CCO1` gave a remaining binding of 1.13 (AP-2 complex subunit sigma (Homo sapiens, UniProt P53680); Kinobeads competition, measured: AP2S1; 0.16 µM, unit not given; relative to: vehicle).
For `COc1cc(CCC[P+](c2ccccc2)(c2ccccc2)c2ccccc2)c(OC)c2c1OCO2.[I-]`, the GI50 was -5.97 log M (OVCAR-4; SRB).
For `N#C[Se]CCCCOc1ccc2c(-c3ccccc3)cc(=O)oc2c1`, the GI50 was 25 ± 3 µM (WiDr, multidrug-resistant; sulforhodamine B).

Repeated from above:
`COc1cc2c(Oc3ccc4[nH]c(C)cc4c3F)ccnc2cc1OCC1(N)CC1`: “grade 3 Hematochezia” 0% (paediatric recurrent refractory sarcoma; 8 mg/kg).
The GI50 of `CN[C@@H]1C[C@H]2O[C@@](C)([C@@H]1OC)n1c3ccccc3c3c4c(c5c6ccccc6n2c5c31)C(=O)NC4` is reported as 0.009 µM (U2OS overexpressing DDR1 G707A; cell growth).
